Assay results collected from several papers.
Every numbered part comes from another study and shows a few of its results, in no order. Substitutions count along the parent as printed.

Block 1
Target: Ras GTPase-activating protein-binding protein 1, RRM domain (G3BP1, Homo sapiens, UniProt Q13283)
Sequence of UniProt Q13283 (whole entry, looked up): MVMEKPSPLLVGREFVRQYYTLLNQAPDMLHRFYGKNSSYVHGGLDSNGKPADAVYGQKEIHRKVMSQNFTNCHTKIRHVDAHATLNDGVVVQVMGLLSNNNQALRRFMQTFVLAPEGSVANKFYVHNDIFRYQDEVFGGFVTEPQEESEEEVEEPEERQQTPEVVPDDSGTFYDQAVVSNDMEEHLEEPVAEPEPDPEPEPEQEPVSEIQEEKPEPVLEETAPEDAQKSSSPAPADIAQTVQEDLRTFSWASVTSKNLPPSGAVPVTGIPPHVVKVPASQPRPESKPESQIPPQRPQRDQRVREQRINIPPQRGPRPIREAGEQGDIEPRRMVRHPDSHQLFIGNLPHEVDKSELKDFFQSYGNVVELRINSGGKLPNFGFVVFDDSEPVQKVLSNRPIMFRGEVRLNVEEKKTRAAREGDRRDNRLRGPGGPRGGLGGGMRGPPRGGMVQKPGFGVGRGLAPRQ
Method: RNA Bind-n-Seq
Form: RNA
Medium: in vitro
Concentration: 1 µM
Notes: whole 134-nt RNA, ends assumed
With: 150 mM KCl
Baseline: input library
Reading: higher = stronger binding
Measurement: log2 enrichment
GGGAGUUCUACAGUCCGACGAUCCACAGACAACACGCACCCACACAGACACAGAGGGAAGGGGUUGGUAUGGGGACAGGGUGCACAGCAGGGCGGGGUAGGACCCCAGCCCCUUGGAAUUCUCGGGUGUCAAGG: -0.0833
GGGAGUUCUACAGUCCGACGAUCCACAGACAACACGCACCCAUACAGACACAGAGGGAAGGGGUUGGGAUGGGGACAGGGUGCACAGCAGGGCGGGGUAGGACCCCAGCCCCUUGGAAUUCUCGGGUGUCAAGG: 0.199
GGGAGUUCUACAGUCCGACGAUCUCCUGUGCUACACAUCGUAUGUACCGAAUCAAACCCAAACCCCCCCAAAUUUUUUUAAAAAAGUAUUAUGUUACGCCGUUCGGAUCUGCAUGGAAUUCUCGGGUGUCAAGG: -0.239
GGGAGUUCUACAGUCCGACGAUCUCAAGUCCUGUGCUACACAUCGUAUGUACCGAAUCGGGGAAGGGGAAGGGAAGGAAAGUAUUAUGUUACGCCGUUCGGAUCUGCACUUCCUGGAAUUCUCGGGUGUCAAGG: -0.196
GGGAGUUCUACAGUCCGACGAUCAAGUCCUGUGCUACACAUCGUAUGUACCGAAUCGGGGAAAGGGAAAGGGGAAAGGGGAAAGUAUUAUGUUACGCCGUUCGGAUCUGCACUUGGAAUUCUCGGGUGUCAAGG: 0.495
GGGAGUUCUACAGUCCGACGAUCUCCUGUGCUACACAUCGUAUGUACCGAAUCGGGGAGGGGUUUUUGGGGUUUUUUUGGGGAAAGUAUUAUGUUACGCCGUUCGGAUCUGCAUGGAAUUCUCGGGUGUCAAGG: 0.706
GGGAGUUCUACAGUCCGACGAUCCCUGUGCUACACAUCGUAUGUACCGAAUCGGGGAAAAAAGGGGAAAAAAGGGAAAAAAGGGAAAGUAUUAUGUUACGCCGUUCGGAUCUGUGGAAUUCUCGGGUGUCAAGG: -0.0545
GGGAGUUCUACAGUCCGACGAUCCUCAAGUCCUGUGCUACACAUCGUAUGUACCGAAUCGGGUGGGAAAGGGUGGGAAAGUAUUAUGUUACGCCGUUCGGAUCUGCACUUCCAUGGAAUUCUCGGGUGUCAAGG: 0.783
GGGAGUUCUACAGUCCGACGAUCCUCAAGUCCUGUGCUACACAUCGUAUGUACCGAAUCGGGCGGGGCGGGGCGGGGAAAGUAUUAUGUUACGCCGUUCGGAUCUGCACUUCCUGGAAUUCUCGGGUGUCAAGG: 0.816

Block 2
Target: human cyclin B2
Effect on: peptide binding
Method: yeast competitive growth sequencing
Form: peptide
Organism: Saccharomyces cerevisiae
Strain: cyclin B2-Cln2 fusion
Concentration: concentration not given
Notes: peptide tiling library
Reading: direction not given
Measurement: binding enrichment score
NEGVSNAVRRSLYIRD: 0.188
RVSGLLSWTLSRVLWL: -0.239
VSRNLRSSLKSSLHTL: 0.065
ASVLSKPIFCFVKD: -0.745
NRLLKLFTRCLTPLVP: -0.828
PKNAKRNLSSEFAN: 0.822
EHCRVLFLDHVMYTIH: 0.391
ISRLFPPRTPGWHQLQ: 1.18
PFSENVSAVQKLDFSD: 0.361
IFNKPECGRVQRAIFQ: 0.706

Block 3
Target: ABI1, truncated, D143A, DHFR fusion (Arabidopsis thaliana)
Method: DHFR PCA, deep sequencing
Medium: yeast
Notes: methotrexate growth selection, single substitutions
With: (+)-ABA 200 µM
Baseline: wild-type fitted maximum
Reading: higher = stronger binding
Measurement: relative binding score
Starting sequence: PYL1, truncated, DHFR fusion (Arabidopsis thaliana); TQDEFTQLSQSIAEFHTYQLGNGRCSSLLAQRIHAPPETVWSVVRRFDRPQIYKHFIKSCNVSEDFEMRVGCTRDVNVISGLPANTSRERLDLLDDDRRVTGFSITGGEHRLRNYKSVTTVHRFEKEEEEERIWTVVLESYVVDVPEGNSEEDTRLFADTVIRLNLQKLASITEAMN; partner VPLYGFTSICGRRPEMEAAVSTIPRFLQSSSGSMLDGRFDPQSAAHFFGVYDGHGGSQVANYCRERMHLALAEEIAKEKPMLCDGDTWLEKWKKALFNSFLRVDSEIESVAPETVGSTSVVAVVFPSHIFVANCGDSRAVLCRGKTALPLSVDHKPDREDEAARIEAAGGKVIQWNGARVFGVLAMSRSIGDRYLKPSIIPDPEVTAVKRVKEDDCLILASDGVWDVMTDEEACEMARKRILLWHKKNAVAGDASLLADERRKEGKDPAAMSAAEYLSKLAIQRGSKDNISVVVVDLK
D159L: 0.386%
S104Q: 64.8%
K168Y: 70.7%
V143N: -9.54%
S9E: 100%
P146G: 71.7%
L29H: 100%

Mixed results
PhoQ, residues 284 288 289 292 302 303 ASVMEA
fold induction (PhoP, residues 12 14 15 18 19 FWNTL (Escherichia coli, UniProt P23836); Sort-seq, measured: YFP reporter; E. coli; PhoQ-PhoP variant library, with: 10 µM Mg2+; baseline: high Mg2+ state, higher = stronger signaling): 9.5

A few entries again (block 1):
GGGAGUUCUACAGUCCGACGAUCCUCAAGUCCUGUGCUACACAUCGUAUGUACCGAAUCGGGUGGGAAAGGGUGGGAAAGUAUUAUGUUACGCCGUUCGGAUCUGCACUUCCAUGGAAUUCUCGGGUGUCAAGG: 0.783
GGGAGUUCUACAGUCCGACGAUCCUCAAGUCCUGUGCUACACAUCGUAUGUACCGAAUCGGGCGGGGCGGGGCGGGGAAAGUAUUAUGUUACGCCGUUCGGAUCUGCACUUCCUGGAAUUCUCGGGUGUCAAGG: 0.816
